Experimental data pooled from the literature.
Each numbered part is a random draw from the data of one study; scales do not carry over between parts. Changes are numbered by the printed parent chain.

Set 1 — technique: DNA-protein interaction ELISA; molecule type: double-stranded DNA, one strand shown; sample: in vitro, bacterial lysate; concentration: not given; setting: whole dsDNA probe, crude lysate protein; reference: highest signal in screen; direction: higher = stronger binding; measurement: relative absorbance
Target: Probable WRKY transcription factor 11, DNA-binding domain (WRKY11, Arabidopsis thaliana, UniProt Q9SV15, residues 228-325)
UniProt Q9SV15, sequence (228-325, looked up): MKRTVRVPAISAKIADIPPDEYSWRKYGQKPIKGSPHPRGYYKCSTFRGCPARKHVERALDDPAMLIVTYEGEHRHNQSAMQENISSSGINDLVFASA
AAAAAATCTGTTCTCGTTTCCCCTTCAAAA: 17.9 % of maximum
AAAAAAATCATCCTATTGTTGCTGTCAAAA: 16.7 % of maximum
AAAAAAAAATGCTAGCGCGTACGTAAAAAA: 16.4 % of maximum
AAAAAAGGCGTCTGACTGTAACTCGTAAAA: 32 % of maximum
AAAAAATCCACGACTCAGCAGCTCTTAAAA: 18.2 % of maximum
AAAAAATGTCTTCTTACACCCTCTAGAAAA: 18.2 % of maximum

Set 2 — technique: universal PBM; molecule type: double-stranded DNA, one strand shown; sample: in vitro; concentration: 600 nM; direction: higher = stronger binding; measurement: E-score
Target: Sal-like protein 4, full length isoform A (SALL4, Homo sapiens, UniProt Q9UJQ4, residues 1-1053)
UniProt Q9UJQ4, sequence (whole entry, looked up): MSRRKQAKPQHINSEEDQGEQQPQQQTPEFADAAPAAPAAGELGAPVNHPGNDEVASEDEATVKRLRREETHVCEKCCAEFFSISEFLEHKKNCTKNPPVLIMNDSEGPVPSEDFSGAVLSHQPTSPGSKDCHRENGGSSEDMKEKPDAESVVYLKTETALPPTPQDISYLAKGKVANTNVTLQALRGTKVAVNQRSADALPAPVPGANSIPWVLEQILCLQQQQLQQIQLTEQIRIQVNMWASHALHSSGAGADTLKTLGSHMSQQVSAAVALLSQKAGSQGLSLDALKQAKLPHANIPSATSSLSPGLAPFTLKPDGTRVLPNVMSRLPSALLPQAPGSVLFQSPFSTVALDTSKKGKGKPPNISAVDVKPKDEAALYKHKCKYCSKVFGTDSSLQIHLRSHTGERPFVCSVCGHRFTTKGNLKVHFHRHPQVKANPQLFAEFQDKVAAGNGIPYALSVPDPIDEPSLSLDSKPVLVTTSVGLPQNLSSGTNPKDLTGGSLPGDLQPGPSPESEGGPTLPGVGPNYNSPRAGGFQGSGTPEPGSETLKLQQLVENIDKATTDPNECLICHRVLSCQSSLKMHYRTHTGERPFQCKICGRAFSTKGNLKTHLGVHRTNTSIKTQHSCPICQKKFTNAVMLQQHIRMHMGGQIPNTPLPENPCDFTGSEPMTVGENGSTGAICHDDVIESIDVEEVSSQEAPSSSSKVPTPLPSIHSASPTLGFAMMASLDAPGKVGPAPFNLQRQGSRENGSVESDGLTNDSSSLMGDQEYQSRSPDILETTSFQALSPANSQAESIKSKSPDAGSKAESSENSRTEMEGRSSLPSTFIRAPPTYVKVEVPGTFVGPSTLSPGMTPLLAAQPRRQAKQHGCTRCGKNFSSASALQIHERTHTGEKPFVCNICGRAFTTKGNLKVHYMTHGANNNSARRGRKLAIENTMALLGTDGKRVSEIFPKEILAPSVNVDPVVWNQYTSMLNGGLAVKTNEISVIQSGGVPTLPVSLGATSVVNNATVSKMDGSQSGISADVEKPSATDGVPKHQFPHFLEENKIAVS
Setting: 8-mer, flanks averaged, mean of replicates
CTGTTAGA: 0.037
GGTCTCTA: -0.036
TGGCGACA: -0.0289
TATCAACA: 0.287
AGACCTAT: 0.215
AACCAACT: 0.0263
AGCTAAGA: 0.0314

Set 3 — technique: DHFR PCA, deep sequencing; sample: yeast; together with: (+)-ABA 710 µM; reference: wild-type fitted maximum; direction: higher = stronger binding; measurement: relative binding score
Target: ABI1, truncated, D143A, DHFR fusion (Arabidopsis thaliana)
Setting: methotrexate growth selection, single substitutions
Starting sequence: PYL1, truncated, DHFR fusion (Arabidopsis thaliana); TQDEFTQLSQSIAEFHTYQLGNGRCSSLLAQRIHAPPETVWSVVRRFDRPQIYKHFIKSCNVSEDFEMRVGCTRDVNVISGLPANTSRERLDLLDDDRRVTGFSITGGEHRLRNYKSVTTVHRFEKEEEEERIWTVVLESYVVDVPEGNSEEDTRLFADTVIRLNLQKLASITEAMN; partner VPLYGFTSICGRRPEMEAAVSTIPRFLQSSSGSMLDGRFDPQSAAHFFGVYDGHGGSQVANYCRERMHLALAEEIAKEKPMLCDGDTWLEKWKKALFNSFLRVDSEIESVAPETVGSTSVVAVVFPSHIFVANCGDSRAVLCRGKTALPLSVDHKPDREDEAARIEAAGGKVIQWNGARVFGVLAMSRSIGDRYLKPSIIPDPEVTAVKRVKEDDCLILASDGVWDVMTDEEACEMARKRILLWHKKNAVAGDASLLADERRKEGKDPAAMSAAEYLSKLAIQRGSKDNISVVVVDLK
Y53F: 92.2%
K54S: 8.28%
E109M: 94.7%
F157T: 27.6%
C60S: 88.1%
F103A: -8.1%
R99T: 92.2%
E130Y: 105%

Mixed results
PhoQ, residues 284 288 289 292 302 303 ALVSVA  fold induction (PhoP, residues 12 14 15 18 19 LYFRQ (Escherichia coli, UniProt P23836); Sort-seq, item: YFP reporter; E. coli; PhoQ-PhoP variant library, together with: 10 µM Mg2+; reference: high Mg2+ state, higher = stronger signaling): 4.89
